Measurements collected from several papers.
± gives the spread as reported.

| SMILES | system | conditions | measurement | result |
| --- | --- | --- | --- | --- |
| C=Cc1cc(O)cc2nc(-c3ccc(O)c([76Br])c3)oc12 | female C57BL/6 mouse, spleen | 6 h, high dose | tissue uptake | 0.03 %ID/g |
| Cn1cc(-c2cccc(CN3CCC4(CC3)COc3c4ccc4c3CN([C@H]3CCC(=O)NC3=O)C4=O)c2)cn1 | mouse Crbn I391V, thymus | oral, 30 mg/kg, 6 h | tissue concentration | 413 ng/g |
| N=C(N)NCc1ccc(C(=O)NCCCC[C@H](NC(=O)N[C@@H](CCC(=O)O)C(=O)O)C(=O)O)cc1[211At] | SCID mouse, PC-3 xenografts, kidneys | 14 h | tissue uptake | 17.2 ± 10.7 %ID/g |
| CCc1nn(C)c2nc(-c3ccc(C(=O)O)cc3)nc(NCc3ccccc3)c12 | CD-1 mouse, male, intestinal tissue | oral, 10 mg/kg | tissue persistence time | ≥ 7 h |
| N=C(N)NCc1ccc(C(=O)NCCCC[C@H](NC(=O)N[C@@H](CCC(=O)O)C(=O)O)C(=O)O)cc1[131I] | SCID mouse, PC-3 xenografts, brain | 21 h | tissue uptake | 0.03 ± 0.01 %ID/g |
| C[S]1CC[S]2CC[P](CO)(CO)[99Tc+]12.[C-]#[O+].[C-]#[O+].[C-]#[O+] | female CF-1 mouse, carcass | intravenous, 24 h | tissue uptake | 1 %ID |
| CCCCCCCC(=O)NCCCC[C@H](NC(=O)[C@H](Cc1ccccc1)NC(=O)[C@@H](CCCNC(=N)N)NC(=O)[C@@H](N)Cc1ccc(O)cc1)C(N)=O | CD-1 mouse, male, spleen | intravenous, 3 mg/kg, 180 min | tissue concentration | 1310 ± 385 ng/g |
| N=C(N)NCc1ccc(C(=O)NCCCC[C@H](NC(=O)CCCCCCC(=O)NCCCC[C@H](NC(=O)N[C@@H](CCC(=O)O)C(=O)O)C(=O)O)C(=O)O)cc1[131I] | SCID mouse, PC-3 xenografts, lungs | 2 h | tissue uptake | 0.81 ± 0.37 %ID/g |
| COC(=O)C[C@](O)(CCCC(C)(C)OC(C)=O)C(=O)O[C@@H]1C(OC)=C[C@]23CCCN2CCc2cc4c(cc2[C@H]13)OCO4 | CD1 mouse, pancreas | subcutaneous, 1 mg/kg, 2 h | tissue concentration | 180 ng/mL |
| CN[C@](C)(C[18F])C(=O)O | SCID mouse SK-OV-3 xenograft, spleen | 30 min, post injection | tissue uptake | 9.3 ± 1.2 %ID/g |
